Measurements of several laboratories.
A part holds a random share of what one study measured. Changes are numbered by the printed parent chain.

Study 1 — method: universal PBM; molecule type: double-stranded DNA, one strand shown; medium: in vitro; concentration: not given; direction: higher = stronger binding; quantity: E-score
Target: Sal-like protein 4, full length isoform B (SALL4, Homo sapiens, UniProt Q9UJQ4-2, residues 1-616)
Setting: 8-mer, flanks averaged, mean of replicates
GATGTTGA: 0.0352
AGGACTTA: 0.0625
ACAGCCCT: -0.247
AGACGACT: -0.165
CACGCCTC: -0.184
AATCGAGC: -0.052
GTGGAGAA: -0.0853
AGATAATG: 0.266
GACGCACC: -0.203
ACAATACT: 0.237
AATTCATG: 0.257
ACAAGAGC: 0.0694
TCAAGCAA: -0.0773
AGTTAGTG: -0.00668
CAACAGTC: 0.0148
CCCGCCAC: -0.148
ATAGGTCA: 0.17
AAACGATA: 0.173
AGGGTCGA: -0.135
ACGAGGCG: -0.162

Study 2 — method: RNA Bind-n-Seq; molecule type: RNA; medium: in vitro; concentration: 365 nM; baseline: no-protein control; direction: higher = stronger binding; quantity: RBNS enrichment (R)
Target: RNA binding protein fox-1 homolog 2, RRM domain, GST-SBP tag (RBFOX2, Homo sapiens, UniProt O43251-10, residues 100-194)
Setting: natural RNA segment, single round, ends assumed
Constant ends, left off below: GGGAGUUCUACAGUCCGACGAUC … UGGAAUUCUCGGGUGCCAA
GGAUACCACAUGUUUUAUAUAUAAAUAAUUACUGUUUAUGAUAUAGACAUUGAUAUUGACUAUUUAGAGAACCGUUGUUAAUUUUAAAACUAGCAAUCUAUAAAGUGCAC: 0.478
CCAACUUCCACAAAACAACUCAAGGCCUCCAAGUAUCAAGAUGUCCUGAAAUUUUUUUUUUUUUAGCAGAAUCUGAAAUUAGAUUUUGUACACUCCCUGGAAUGUAAUUG: 0.713
UUCACUUUCUCUAGCCCAUCAUUACCUGUGAACUGCAGUGGGGCAGUCAUGGCAAAUAGAAUUGGGCUGGGGUUUCUCCUUCUUUUCAGUUCAUUGUUUGCCCUGCUAGG: 1.29
AAGUGGAUUUAUCUAAAGUGGAACCAGCUGACAUUAUAUCUGUAUCGUAUGGAGAAUGAUGAAGGGCUCCACUGUUGUUAUAUGUCUUGUUUAUUUAAAACUUUUUUUAA: 1.03
CCCCUUACCCCACAACGUGCAACUGACACUCCCACCCAGUCUCUGCUCCACCUUUCAGCCCACGUCACGUGUAGUGUCCAUUUUGUGAAGCCCUGUUGUGCCACAGAGUG: 0.646
CUGUCAUGAUAGAGCUGUAAUUCUGGUGUCACACGGAUCACUUACUGGAGGUGUAUAAUAUGAGAUAGUGAGGCAGACAGACAGACAGACAGACAUGGGACUACAUCAUA: 2.74
GUGGAGAAAGAGAAGGCAAACGUUGGAACACUAGGAAAAGCUAGAAAUUCAGACAACACACAUGGAUCCCCUUAAAACAUGUAAAUGUGUCAGAACACGGUUGACCUGCC: 0.688
GGGAGAAGAGAGGGUUUCCCUACAUAUCCCCAGAGAAAUCAGGUGACUUUUUCCCGGAGAUGGGGGUGGGGGAUGUUUAGGUCCCACUAUGAUGCAAGCAGCCAUGACCC: 0.677
CAUGCAUGCCUGCACUCCAGAGUCAGGUGCCAAGCUUGCUUGUCCUUCCCUGCCUCCAGGUCAGGGAGCAGCUGCAGUGAGGGUGGGGAGGUGAGGGCUUUGUACACGUG: 9.6
UGCCACGGUAAGAUGUAUAGUAUGGCCAUCCACACUAAUUGUAGGAGGACAGCUAAAUGGACAGUCAGUCACUUUGAGGUCACUGCAUUUGACUGGAAAUGUAUAAUGUG: 0.441
UCAUCCUCACCAUCCAUACAUGGGAGAUAUUUAAAGUUUCUAAAGUCGAUCCCACCAGCCCUCGAUGUGCACAGGCAGUGGGUGUCAAGCUCGGGAAGUGGCUGGCUGGC: 0.521
UCACUUAAACCUCCUGUGCCUCGAUUUCCCCCUUCUACAAAGUGGGGCCAAUGAUUCUUGUGUGUCAGCACUGUUACUACCGAGUGCUGAGUAAGGGCAAAAUAAUACCC: 0.59

Study 3 — target: CCNF, cyclin fold, Cln2 fusion (human); method: yeast growth competition, sequencing; medium: yeast; setting: strong parent motif; baseline: not given; direction: higher = stronger binding; quantity: normalised enrichment score
Starting sequence: BRCA2 docking peptide (human); PSIKRNLLNEFDR; partner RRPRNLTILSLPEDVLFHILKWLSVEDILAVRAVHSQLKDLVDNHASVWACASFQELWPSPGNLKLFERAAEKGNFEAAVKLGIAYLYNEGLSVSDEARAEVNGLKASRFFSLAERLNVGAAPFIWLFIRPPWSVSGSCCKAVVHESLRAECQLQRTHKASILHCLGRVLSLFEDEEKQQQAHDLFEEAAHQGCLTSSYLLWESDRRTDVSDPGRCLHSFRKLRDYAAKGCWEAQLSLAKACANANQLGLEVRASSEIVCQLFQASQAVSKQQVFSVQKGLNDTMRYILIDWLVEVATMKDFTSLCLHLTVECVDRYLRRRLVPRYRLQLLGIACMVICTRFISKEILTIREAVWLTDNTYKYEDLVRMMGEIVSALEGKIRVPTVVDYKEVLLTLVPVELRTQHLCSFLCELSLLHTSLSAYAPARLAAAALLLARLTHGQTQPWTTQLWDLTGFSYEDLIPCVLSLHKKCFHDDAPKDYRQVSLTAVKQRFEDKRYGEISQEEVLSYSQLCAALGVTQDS
S2L: 3.41
N9E: 2.31
P1T: 2.81
D12Q: 3.05
L7Q: 1.04
R5L: -0.747
N9Y: 4.3
R13N: 3.28
R5I: 0.206
S2Y: 2.62
S2T: 2.75
N6D: 0.763
N6A: 2.99
F11G: 2.23
I3A: 4.05

Study 4 — target: MAFF, bZIP domain (human); method: DHFR protein complementation; medium: yeast; baseline: wild-type JUN-FOS pair; direction: higher = stronger binding; quantity: binding fitness
Setting: single substitutions, most at no-binding floor
Starting sequence: JUN, bZIP domain (human); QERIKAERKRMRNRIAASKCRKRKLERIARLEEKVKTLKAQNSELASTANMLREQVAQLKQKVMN; partner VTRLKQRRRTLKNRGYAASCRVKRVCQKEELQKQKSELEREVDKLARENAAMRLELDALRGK
L38V: -1.59 natural log
E54D: -1.47 natural log
L38G: -1.5 natural log
E32Q: -1.49 natural log
E33H: -1.4 natural log
K39V: -1.45 natural log
A40G: -1.35 natural log
R53L: -1.61 natural log
A57N: -1.42 natural log
V35T: -1.47 natural log
L45I: -1.51 natural log
E54T: -1.5 natural log
L52F: -1.45 natural log
S43G: -1.45 natural log
E54L: -1.57 natural log
N42W: -1.26 natural log
I28R: -1.38 natural log
L52M: -1.32 natural log
Q55W: -1.58 natural log
E44T: -1.44 natural log
A57E: -1.29 natural log
T37G: -1.45 natural log
V35R: -1.57 natural log
V56R: -1.29 natural log
E32P: -1.4 natural log

Study 5 — method: RNA Bind-n-Seq; molecule type: RNA; medium: in vitro; concentration: not given; baseline: input RNA pool; direction: higher = stronger binding; quantity: bound/input enrichment
Target: RING finger protein unkempt homolog, zinc fingers 1-6, GST-SBP tag (UNK, Homo sapiens, UniProt Q9C0B0, residues 30-357)
Setting: RNA with constant flanks, human-mouse chimeric sites, ends assumed
Constant ends, left off below: GGGAGUUCUACAGUCCGACGAUC … CAACAGAGGAUUGAGCAUCA
Construct (chain): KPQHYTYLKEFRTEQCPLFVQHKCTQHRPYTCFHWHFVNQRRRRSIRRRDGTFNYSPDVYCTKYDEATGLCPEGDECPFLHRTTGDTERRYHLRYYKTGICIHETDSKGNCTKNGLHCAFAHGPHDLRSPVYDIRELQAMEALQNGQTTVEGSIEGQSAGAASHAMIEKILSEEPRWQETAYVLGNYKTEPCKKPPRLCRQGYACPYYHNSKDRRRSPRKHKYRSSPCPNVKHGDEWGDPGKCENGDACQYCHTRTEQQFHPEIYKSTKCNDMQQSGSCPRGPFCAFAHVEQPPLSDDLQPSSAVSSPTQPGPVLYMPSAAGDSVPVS
AACUUCGUGCAUCGGUUUCCUUUUGUAGCUGUUUCAAUUGGCUUCCUUGUGAAUAAAAAGAUAGAAUUUGGAAUUGUGUACAGCUGUGUGGAAGAUAAGAUGUACACCGGCAGGAAAGGG: 3.22 ratio
UGACAAGGGCACUGCAGAGCCAUGCCUUUCCUUGACAUACAGAAAAAGUUCGGCCUUAGCCUGGACCGGCACUUUAUGUUCCUAAGCGCAGAACAGCCCUAUAAGAAGGCUGGUCGAUGC: 0.0884 ratio
GUGCCCUUCUCGCUGCUGCGGAGCCCGAGCUGGGAACCAUUCCGGGACUGGUACCCUCCGCAUAGCCGCCUCUUCGAUCAAGCUUUCGGGGUGCCCCGGUUGCCCGAGGAGUGGUCGCAG: 0.0464 ratio
AAUUUCCUGUCAUACUUUUUAGACAUUCACAUCAGACUUACAGAGCACCUGGCCACAUUCUAGGUUUGUGUUAUUUCUCAGCUAUGGGGGUAUGAUUAUGAGAACACUGGCAGCCAGAUG: 1.4 ratio
AUCAAAUACUUUGGGGACAUCAUUAGUGUGGGACAGAGACUGUUGCAAGGAGCUCGGAUCUUAGGGAUUCCUGUUAUUGUAACAGAACAAUACCCCAAAGGACUUGGCAGCACCGUUCAA: 0.141 ratio
AUGGAGAAGGAUUCUCUGCCCCGCUUUGUGCGCUCUGAGUUUUAUCAGGAGCUAAUCAAGUAGUCAUCUGGUCAGGCUUCCAAAAGUUGCCCUGUGAUAUUUCCUCCAUCCUUUGUAGCA: 0.186 ratio
AAAUUUCCCCUCCUGAGGCCUUCUCCAAAGUUGGAGUCUCUUACAGAUGCCUCAUCCCCUGUUAGCGUUUUAGUUUGGACCACCCAGCCUUGGACAAUUCCCGCCAACCAGGCAAUUUGC: 1.53 ratio
UCUUAACUUAUUCAUUUAACUUAUUUUUAUAGCUAGAUAAAUAUUGUUAGUCUUAGACAAUAGCUCACAUUUUUUGAAAAGCAUGCUCUCCCUAUCCAUUUGUCUUAUAACAUGACCCAG: 12.5 ratio
UCUUAACUUAUUCAUUUAACUUAUUUUUAUAGCUAGAUAAAUAUUGUUAGUCUUAGUCAAUAGCUCACAUUUUUUGAGAAGCAUGCCCUCCCUGUCCAUUUGUCUUAUAACAUGACCCAG: 27.5 ratio
AUAAAAGCUAUGUUGAGUGGCCCAGGUCAGUUUGCUGAGAAUGAAACCAACGAGGUCAAUUUUAGAGAGAUCCCCUCACAUGUGCUAUCAAAAGUGUGCAUGUAUUUUACCUACAAGGUC: 0.174 ratio
GGGGAGAAACCUUACGAAUGCGUUCAGUGUGGGAAAUCCUACAGUCAGAGCUCAAACCUCUUCAGACAUCAGAGACGACACAAUGCAGAAAAACUUUUGAAUGUUGUGAAGGUUUAAGAA: 0.247 ratio

For quick reference, copied from above (study 5):
AAUUUCCUGUCAUACUUUUUAGACAUUCACAUCAGACUUACAGAGCACCUGGCCACAUUCUAGGUUUGUGUUAUUUCUCAGCUAUGGGGGUAUGAUUAUGAGAACACUGGCAGCCAGAUG: 1.4 ratio
AAAUUUCCCCUCCUGAGGCCUUCUCCAAAGUUGGAGUCUCUUACAGAUGCCUCAUCCCCUGUUAGCGUUUUAGUUUGGACCACCCAGCCUUGGACAAUUCCCGCCAACCAGGCAAUUUGC: 1.53 ratio
AUGGAGAAGGAUUCUCUGCCCCGCUUUGUGCGCUCUGAGUUUUAUCAGGAGCUAAUCAAGUAGUCAUCUGGUCAGGCUUCCAAAAGUUGCCCUGUGAUAUUUCCUCCAUCCUUUGUAGCA: 0.186 ratio
UGACAAGGGCACUGCAGAGCCAUGCCUUUCCUUGACAUACAGAAAAAGUUCGGCCUUAGCCUGGACCGGCACUUUAUGUUCCUAAGCGCAGAACAGCCCUAUAAGAAGGCUGGUCGAUGC: 0.0884 ratio
AUAAAAGCUAUGUUGAGUGGCCCAGGUCAGUUUGCUGAGAAUGAAACCAACGAGGUCAAUUUUAGAGAGAUCCCCUCACAUGUGCUAUCAAAAGUGUGCAUGUAUUUUACCUACAAGGUC: 0.174 ratio
UCUUAACUUAUUCAUUUAACUUAUUUUUAUAGCUAGAUAAAUAUUGUUAGUCUUAGACAAUAGCUCACAUUUUUUGAAAAGCAUGCUCUCCCUAUCCAUUUGUCUUAUAACAUGACCCAG: 12.5 ratio
GGGGAGAAACCUUACGAAUGCGUUCAGUGUGGGAAAUCCUACAGUCAGAGCUCAAACCUCUUCAGACAUCAGAGACGACACAAUGCAGAAAAACUUUUGAAUGUUGUGAAGGUUUAAGAA: 0.247 ratio
UCUUAACUUAUUCAUUUAACUUAUUUUUAUAGCUAGAUAAAUAUUGUUAGUCUUAGUCAAUAGCUCACAUUUUUUGAGAAGCAUGCCCUCCCUGUCCAUUUGUCUUAUAACAUGACCCAG: 27.5 ratio
